# Published values collected from several papers.
# Parts stem from different laboratories: compare values within a part only.
# Sequence of UniProt O60285 (whole entry, looked up): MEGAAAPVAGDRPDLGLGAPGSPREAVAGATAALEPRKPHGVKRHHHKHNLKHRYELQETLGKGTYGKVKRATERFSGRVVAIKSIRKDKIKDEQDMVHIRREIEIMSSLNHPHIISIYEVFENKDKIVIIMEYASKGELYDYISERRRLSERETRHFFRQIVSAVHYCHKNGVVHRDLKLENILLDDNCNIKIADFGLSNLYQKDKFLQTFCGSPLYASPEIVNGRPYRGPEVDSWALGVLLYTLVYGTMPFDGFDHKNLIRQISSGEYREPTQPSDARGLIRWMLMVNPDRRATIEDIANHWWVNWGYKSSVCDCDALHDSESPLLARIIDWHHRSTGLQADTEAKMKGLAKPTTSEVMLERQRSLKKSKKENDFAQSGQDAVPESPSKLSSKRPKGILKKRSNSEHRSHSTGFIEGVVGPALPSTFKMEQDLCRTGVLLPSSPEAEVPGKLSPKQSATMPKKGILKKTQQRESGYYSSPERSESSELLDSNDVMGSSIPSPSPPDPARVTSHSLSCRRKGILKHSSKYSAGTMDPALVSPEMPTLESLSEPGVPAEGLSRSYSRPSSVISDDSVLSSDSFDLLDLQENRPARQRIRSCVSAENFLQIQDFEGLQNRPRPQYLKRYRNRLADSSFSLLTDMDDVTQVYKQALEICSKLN
# Sequence of UniProt Q9H1R3 (whole entry, looked up): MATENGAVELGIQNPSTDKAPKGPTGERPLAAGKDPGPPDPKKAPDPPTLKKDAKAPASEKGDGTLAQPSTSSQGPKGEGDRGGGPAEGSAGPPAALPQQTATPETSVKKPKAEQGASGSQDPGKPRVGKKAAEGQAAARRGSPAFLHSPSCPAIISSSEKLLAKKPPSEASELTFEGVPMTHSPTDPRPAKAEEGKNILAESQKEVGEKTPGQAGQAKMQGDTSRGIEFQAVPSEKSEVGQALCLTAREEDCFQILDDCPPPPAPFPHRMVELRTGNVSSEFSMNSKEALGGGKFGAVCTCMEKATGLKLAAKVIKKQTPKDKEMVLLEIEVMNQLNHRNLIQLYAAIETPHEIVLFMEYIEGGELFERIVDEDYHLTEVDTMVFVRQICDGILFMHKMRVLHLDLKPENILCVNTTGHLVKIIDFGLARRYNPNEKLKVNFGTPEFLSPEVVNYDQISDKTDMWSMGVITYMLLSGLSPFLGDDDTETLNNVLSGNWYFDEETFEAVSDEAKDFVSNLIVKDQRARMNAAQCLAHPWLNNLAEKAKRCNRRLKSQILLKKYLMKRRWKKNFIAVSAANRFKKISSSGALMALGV
# Sequence of UniProt Q92630 (whole entry, looked up): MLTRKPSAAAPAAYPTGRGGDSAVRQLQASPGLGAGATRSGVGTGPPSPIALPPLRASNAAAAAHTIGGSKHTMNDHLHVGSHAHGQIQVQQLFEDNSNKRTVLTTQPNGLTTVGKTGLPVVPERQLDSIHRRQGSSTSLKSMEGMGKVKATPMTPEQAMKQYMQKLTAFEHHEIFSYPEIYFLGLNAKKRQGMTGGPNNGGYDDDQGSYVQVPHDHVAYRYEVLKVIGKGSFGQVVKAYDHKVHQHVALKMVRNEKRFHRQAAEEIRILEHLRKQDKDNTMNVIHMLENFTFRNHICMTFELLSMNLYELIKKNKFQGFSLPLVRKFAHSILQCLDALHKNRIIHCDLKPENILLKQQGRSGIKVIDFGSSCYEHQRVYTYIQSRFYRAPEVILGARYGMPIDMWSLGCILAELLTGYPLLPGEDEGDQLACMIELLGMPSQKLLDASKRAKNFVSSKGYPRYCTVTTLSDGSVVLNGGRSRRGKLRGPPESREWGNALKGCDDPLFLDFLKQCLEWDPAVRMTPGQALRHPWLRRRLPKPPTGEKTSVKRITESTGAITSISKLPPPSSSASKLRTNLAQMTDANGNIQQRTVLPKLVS
# Sequence of UniProt Q9NY57 (whole entry, looked up): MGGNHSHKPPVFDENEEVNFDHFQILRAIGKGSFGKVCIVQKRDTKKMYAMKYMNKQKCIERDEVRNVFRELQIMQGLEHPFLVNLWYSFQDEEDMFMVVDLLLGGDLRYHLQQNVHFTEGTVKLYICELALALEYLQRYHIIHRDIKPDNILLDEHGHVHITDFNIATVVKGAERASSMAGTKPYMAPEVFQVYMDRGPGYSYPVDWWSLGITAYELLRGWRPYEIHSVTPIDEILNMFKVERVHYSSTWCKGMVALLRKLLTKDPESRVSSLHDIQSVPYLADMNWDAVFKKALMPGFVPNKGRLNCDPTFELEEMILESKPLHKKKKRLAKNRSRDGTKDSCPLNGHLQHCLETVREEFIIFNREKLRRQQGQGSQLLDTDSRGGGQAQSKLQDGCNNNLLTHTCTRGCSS
# Sequence of UniProt Q9P1W9 (whole entry, looked up): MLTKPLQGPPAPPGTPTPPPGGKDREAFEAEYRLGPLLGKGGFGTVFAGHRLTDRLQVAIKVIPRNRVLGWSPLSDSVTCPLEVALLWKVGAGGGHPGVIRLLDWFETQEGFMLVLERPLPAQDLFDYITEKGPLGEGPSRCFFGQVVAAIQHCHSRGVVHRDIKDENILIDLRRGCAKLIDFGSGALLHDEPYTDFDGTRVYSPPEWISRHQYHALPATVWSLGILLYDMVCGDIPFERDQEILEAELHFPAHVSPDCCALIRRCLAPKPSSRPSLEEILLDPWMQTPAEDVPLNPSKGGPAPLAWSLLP

# Set 1 — read-out: RNA clamping; technique: fluorescence polarization; tested at: concentration not given; together with: FAM-labelled poly r(AG)8 RNA; direction: higher = more clamping
# Target: Eukaryotic initiation factor 4A-I (EIF4A1, Homo sapiens, UniProt P60842)
# Sequence of UniProt P60842 (whole entry, looked up): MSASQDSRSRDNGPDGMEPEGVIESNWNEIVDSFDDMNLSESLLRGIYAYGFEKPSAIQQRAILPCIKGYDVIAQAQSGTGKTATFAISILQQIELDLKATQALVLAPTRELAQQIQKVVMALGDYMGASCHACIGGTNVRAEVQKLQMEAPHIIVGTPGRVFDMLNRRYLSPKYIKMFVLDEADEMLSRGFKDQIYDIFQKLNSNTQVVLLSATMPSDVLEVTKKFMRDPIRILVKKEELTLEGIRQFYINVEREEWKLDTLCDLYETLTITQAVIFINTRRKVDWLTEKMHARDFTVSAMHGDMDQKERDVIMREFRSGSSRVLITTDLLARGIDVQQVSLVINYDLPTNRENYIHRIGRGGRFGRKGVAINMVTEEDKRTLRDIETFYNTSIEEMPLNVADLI
SMILES,fluorescence polarization change [mP]
C#CCNC(=O)COc1cc(OC)c2c(c1)O[C@@]1(c3ccc(OC)cc3)[C@H](c3ccccc3)c3c(nc(-c4ccccc4)[nH]c3=O)[C@@]21O,-2.8
CNCCOc1ccc2c(c1)O[C@@]1(c3ccc(Cl)cc3)[C@H](c3ccccc3)C[C@H](O)[C@@]21O,114
COC(=O)[C@H]1C(=O)[C@@]2(NC34C[C@H]5C[C@@H](C3)C[C@@H](C4)C5)c3c(OC)cc(OC)cc3O[C@@]2(c2ccc(OC)cc2)[C@@H]1c1ccccc1,0.6
COc1ccc([C@@]23Oc4cc(OC)cc(OC)c4[C@]2(O)[C@H](O)[C@H](C(=O)c2cc4ccccc4o2)[C@H]3c2ccccc2)cc1,6
COc1ccc([C@@]23Oc4cc(OC)cc(OC)c4[C@]2(O)[C@H](O)[C@H](C(=O)N(C)C)[C@H]3c2ccccc2)cc1,48
C=CCN1c2cc(OC)cc(OC)c2[C@]2(O)[C@H](O)[C@H](C(=O)OC)[C@@H](c3ccccc3)[C@]12c1ccc(OC)cc1,0.5
C#CCNC(=O)CCCn1c(-c2ccccc2)nc2c(c1=O)[C@@H](c1ccccc1)[C@]1(c3ccc(OC)cc3)Oc3cc(OC)cc(OC)c3[C@]21O,26
C#CCOc1ccc(-c2nc(OCC#C)c3c(n2)[C@@]2(O)c4c(OC)cc(OC)cc4O[C@@]2(c2ccc(OC)cc2)[C@@H]3c2ccccc2)cc1,-15
COc1ccc([C@@]23Oc4cc(OC)cc(OC)c4[C@]2(NCc2ccccc2)C(=O)C[C@H]3c2ccccc2)cc1,12.1
COC(=O)[C@H]1[C@@H](O)[C@@]2(O)c3c(OC)cc(OCc4ccccc4)cc3O[C@@]2(c2ccc(OC)cc2)[C@@H]1c1ccccc1,17.2
COc1ccc([C@@]23Oc4cc(OC)cc(OC)c4[C@]2(O)[C@H](O)[C@H](CO)[C@H]3c2ccccc2)cc1,51.2
CCOC(=O)[C@H]1[C@@H](O)[C@@]2(O)c3c(OC)cc(OC)cc3O[C@@]2(c2ccc(OC)cc2)[C@@H]1c1ccc(Br)cc1,6

# Set 2 — read-out: enzyme activity; action: inhibitor; tested at: 10 µM
# Target: Calcium/calmodulin-dependent protein kinase type II subunit alpha (CAMK2A, Homo sapiens, UniProt Q9UQM7)
# Sequence of UniProt Q9UQM7 (whole entry, looked up): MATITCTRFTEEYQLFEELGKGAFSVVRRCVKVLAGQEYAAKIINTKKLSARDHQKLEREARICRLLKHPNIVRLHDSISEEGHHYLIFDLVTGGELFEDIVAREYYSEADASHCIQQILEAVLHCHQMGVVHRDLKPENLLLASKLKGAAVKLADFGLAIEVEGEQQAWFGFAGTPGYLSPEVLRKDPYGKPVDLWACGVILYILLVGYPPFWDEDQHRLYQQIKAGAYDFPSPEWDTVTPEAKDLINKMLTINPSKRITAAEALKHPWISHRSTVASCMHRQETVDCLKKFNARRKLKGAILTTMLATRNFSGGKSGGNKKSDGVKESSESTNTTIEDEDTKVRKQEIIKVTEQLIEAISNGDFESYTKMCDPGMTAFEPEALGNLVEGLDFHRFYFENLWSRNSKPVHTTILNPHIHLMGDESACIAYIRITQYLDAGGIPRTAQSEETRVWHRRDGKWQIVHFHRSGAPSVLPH
Compound,inhibition [%]
O=c1[nH]c(=O)n([C@H]2C[C@H](O)[C@@H](CO)O2)cc1I,-10
C[C@@H]1CC[C@@]2(OC1)O[C@H]1C[C@H]3[C@@H]4CC=C5C[C@@H](O)CC[C@]5(C)[C@H]4CC[C@]3(C)[C@H]1[C@@H]2C,-41
O=C(O)c1ccc(-n2nc(-c3ccccc3O)nc2-c2ccccc2O)cc1,4
C[C@H](CC[C@@]1(O)O[C@H]2C[C@H]3[C@@H]4CC=C5C[C@@H](O[C@@H]6O[C@H](CO)[C@@H](O)[C@H](O[C@@H]7O[C@H](CO)[C@@H](O)[C@H](O)[C@H]7O)[C@H]6O[C@@H]6O[C@@H](C)[C@H](O)[C@@H](O)[C@H]6O)CC[C@]5(C)[C@H]4CC[C@]3(C)[C@H]2[C@@H]1C)CO[C@@H]1O[C@H](CO)[C@@H](O)[C@H](O)[C@H]1O,-14
N#Cc1cc(-c2n[nH]c(-c3ccncc3)n2)ccn1,1
CCCCCCCCCCCCCCCCCCCCCCC(=O)O,-30
C[C@@H]1O[C@@H](Oc2cc(O)c3c(=O)c(O)c(-c4ccc(O)cc4)oc3c2O)[C@H](O)[C@H](O)[C@H]1O,17
COc1cc2nc(N3CCN(C(=O)C4COc5ccccc5O4)CC3)nc(N)c2cc1OC (stereo not shown),5
CNC(=O)c1c(I)c(NC(C)=O)c(I)c(C(=O)O)c1I,-1
C[C@]12CC[C@@H]3c4ccc(O)cc4CC[C@H]3[C@@H]1CCC2=O,5
O=C(O)CCCCCCCCCCC(=O)O,-8
CC[N+](C)(C)c1cccc(O)c1,-9
CC(C)CCC[C@@H](C)[C@H]1CC[C@H]2[C@@H]3C(=O)C=C4C[C@@H](O)CC[C@]4(C)[C@H]3CC[C@]12C,-12
CCn1cc(C(=O)O)c(=O)c2cc(F)c(N3CCNCC3)nc21,-2
CC(=O)c1ccccc1,20
O=Cc1ccoc1,6

# Set 3 — read-out: cell-free assay; technique: competition with immobilised ligand; tested at: 1 µM
# SMILES: CCS(=O)(=O)c1cc2cc(C[C@@](O)(CC(C)(C)c3ccc(F)cc3C(N)=O)C(F)(F)F)[nH]c2cn1
target,remaining binding
"MAP3K20 (Homo sapiens, UniProt Q9NYL2)",100%
"PIKFYVE (Homo sapiens, UniProt Q9Y2I7)",69%
"NUAK1 (Homo sapiens, UniProt O60285)",77%
"IRAK1 (Homo sapiens, UniProt P51617)",80%
"HIPK1 (Homo sapiens, UniProt Q86Z02)",90%
"Tyrosine-protein kinase JAK1, JH1 (JAK1, Homo sapiens, UniProt P23458)",89%
"MAP4K2 (Homo sapiens, UniProt Q12851)",80%
"MAP3K4 (Homo sapiens, UniProt Q9Y6R4)",93%
"DYRK2 (Homo sapiens, UniProt Q92630)",83%
"MARK2 (Homo sapiens, UniProt Q7KZI7)",100%
"PIM2 (Homo sapiens, UniProt Q9P1W9)",99%
"EGFR (Homo sapiens, UniProt P00533, G719C)",100%
"MYLK2 (Homo sapiens, UniProt Q9H1R3)",100%
"STK32B (Homo sapiens, UniProt Q9NY57)",100%
"Myosin-IIIa (MYO3A, Homo sapiens, UniProt Q8NEV4)",80%
"NIM1K (Homo sapiens, UniProt Q8IY84)",51%

# Set 4 — read-out: enzyme activity; action: inhibitor; tested at: 0.5 µM; reference: control
# Target: Receptor tyrosine-protein kinase erbB-4 (ERBB4, Homo sapiens, UniProt Q15303)
# Sequence of UniProt Q15303 (whole entry, looked up): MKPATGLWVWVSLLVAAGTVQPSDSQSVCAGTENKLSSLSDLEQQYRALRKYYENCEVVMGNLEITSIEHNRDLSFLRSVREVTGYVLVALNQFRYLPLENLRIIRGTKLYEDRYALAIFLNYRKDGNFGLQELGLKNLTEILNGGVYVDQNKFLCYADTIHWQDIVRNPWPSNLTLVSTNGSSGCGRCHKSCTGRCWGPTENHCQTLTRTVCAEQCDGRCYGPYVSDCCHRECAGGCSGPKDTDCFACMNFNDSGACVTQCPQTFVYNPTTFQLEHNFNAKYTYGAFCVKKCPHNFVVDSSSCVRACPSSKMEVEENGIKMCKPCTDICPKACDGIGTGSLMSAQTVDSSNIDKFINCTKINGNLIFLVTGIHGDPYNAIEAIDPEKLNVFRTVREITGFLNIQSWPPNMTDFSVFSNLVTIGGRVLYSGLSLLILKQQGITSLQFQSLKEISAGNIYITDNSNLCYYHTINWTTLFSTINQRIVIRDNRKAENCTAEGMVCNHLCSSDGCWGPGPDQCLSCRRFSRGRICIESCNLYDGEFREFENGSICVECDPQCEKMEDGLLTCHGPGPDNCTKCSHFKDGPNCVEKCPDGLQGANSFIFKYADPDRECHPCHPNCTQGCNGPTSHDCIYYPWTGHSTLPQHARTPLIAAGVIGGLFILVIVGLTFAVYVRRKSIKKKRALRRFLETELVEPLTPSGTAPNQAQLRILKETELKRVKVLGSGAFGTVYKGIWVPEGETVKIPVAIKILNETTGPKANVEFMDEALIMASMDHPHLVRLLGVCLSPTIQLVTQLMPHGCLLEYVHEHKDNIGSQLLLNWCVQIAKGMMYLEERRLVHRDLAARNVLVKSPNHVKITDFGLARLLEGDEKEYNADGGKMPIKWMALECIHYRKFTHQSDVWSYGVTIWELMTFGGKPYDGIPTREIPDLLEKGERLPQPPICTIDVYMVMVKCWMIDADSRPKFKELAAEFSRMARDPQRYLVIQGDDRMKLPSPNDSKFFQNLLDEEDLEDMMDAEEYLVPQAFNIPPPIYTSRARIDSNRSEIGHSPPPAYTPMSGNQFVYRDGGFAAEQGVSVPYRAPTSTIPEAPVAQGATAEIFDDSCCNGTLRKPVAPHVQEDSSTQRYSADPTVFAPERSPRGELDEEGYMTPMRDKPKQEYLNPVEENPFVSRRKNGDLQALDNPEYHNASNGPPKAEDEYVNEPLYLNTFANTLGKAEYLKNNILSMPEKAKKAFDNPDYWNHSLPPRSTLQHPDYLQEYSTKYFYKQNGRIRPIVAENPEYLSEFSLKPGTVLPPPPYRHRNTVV
Structure (SMILES),remaining activity [%]
c1ccc(-c2cnc(Nc3ccc(OCCN4CCCC4)cc3)s2)cc1,101
c1ccc(-c2[nH]ncc2-c2ccnc3ccccc23)nc1,85.7
O=C(NC(NC(=S)Nc1ccc(F)c([N+](=O)[O-])c1)C(Cl)(Cl)Cl)C(c1ccccc1)c1ccccc1 (stereo not shown),103
N#Cc1c(NC(=O)c2cccc3ccccc23)sc2c1CCCC2,99.8
N#C/C(=C\c1ccc(O)c(O)c1)C(=O)NCc1ccccc1,80.9
CN([C@@H](Cc1ccc(OS(=O)(=O)c2cccc3cnccc23)cc1)C(=O)N1CCN(c2ccccc2)CC1)S(=O)(=O)c1cccc2cnccc12,103
CCOc1nc(NC(=O)Cc2cc(OC)ccc2OC)cc(N)c1C#N,98.6
CCN(CC)C(=O)c1ccc(Nc2nc(OCC3CCCCC3)c3[nH]cnc3n2)cc1,91
C[C@@H]1CCN(C(=O)CC#N)C[C@@H]1N(C)c1ncnc2[nH]ccc12,100
O=C1c2ccccc2-c2n[nH]c3cccc1c23,98.2
Ic1cccc(CSc2nnc(-c3ccncc3)o2)c1,96.4
CN(C)C[C@H]1CCn2c(c(C3=C(c4cn(C)c5ccccc45)C(=O)NC3=O)c3ccccc32)C1,84.3
Nc1cccc(-c2cc3c(Oc4cccc(O)c4)ncnc3[nH]2)c1,75.8
COc1cc2ncnc(Nc3ccc(O)c(Br)c3)c2cc1OC,29.1
O=c1cc(-c2cccc3c2Sc2ccccc2S3)oc(N2CCOCC2)c1,105
Cn1nc2c3c(cccc31)C(=O)c1ccccc1-2,94.3
COc1cc2c(cc1OC)-c1[nH]nc(Nc3cccc(F)c3)c1C2,96.5
Cc1cn(-c2cc(NC(=O)c3ccc(C)c(Nc4nccc(-c5cccnc5)n4)c3)cc(C(F)(F)F)c2)cn1,82.1
Cc1nc2cc3nc(-c4cccs4)cnc3cc2n1C,95
Cc1cc2ncc(-c3ccccc3)nc2cc1C,96.4
O=C1C(Cl)=C(N2C(=O)CCC2=O)C(=O)c2ccccc21,110
O=C(Nc1cccc(Nc2nccc(Nc3cccc(C(F)(F)F)c3)n2)c1)C1CC1,103
COc1cc2ncnc(Nc3cccc(Cl)c3)c2cc1OC,35.5
